Experimental data collected from several papers.
A part holds a random share of what one study measured. Changes are numbered by the printed parent chain.

Series 1
Target: Ras GTPase-activating protein-binding protein 1, full length (G3BP1, Homo sapiens, UniProt Q13283)
Chain of UniProt Q13283 (whole entry, looked up): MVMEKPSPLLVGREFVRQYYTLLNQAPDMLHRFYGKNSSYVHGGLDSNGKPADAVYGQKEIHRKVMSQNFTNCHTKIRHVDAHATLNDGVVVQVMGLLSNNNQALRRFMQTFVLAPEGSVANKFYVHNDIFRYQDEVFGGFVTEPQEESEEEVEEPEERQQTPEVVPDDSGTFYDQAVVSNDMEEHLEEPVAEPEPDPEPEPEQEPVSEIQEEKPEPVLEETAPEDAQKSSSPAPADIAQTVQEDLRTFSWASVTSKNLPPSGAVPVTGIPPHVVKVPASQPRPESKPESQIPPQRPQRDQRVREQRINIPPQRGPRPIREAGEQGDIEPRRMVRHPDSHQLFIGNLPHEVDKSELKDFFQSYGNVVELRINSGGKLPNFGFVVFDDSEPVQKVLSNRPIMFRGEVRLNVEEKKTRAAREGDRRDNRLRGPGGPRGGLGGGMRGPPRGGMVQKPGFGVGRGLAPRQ
Technique: RNA Bind-n-Seq
Form: RNA
Medium: in vitro
Concentration: 200 nM
Setting: whole 134-nt RNA, ends assumed
With: 150 mM LiCl
Reference: input library
Reading: higher = stronger binding
Measurement: log2 enrichment
Each molecule: 7-deaza-guanosine replaces G
All sequences stand within: GGGAGUUCUACAGUCCGACGAUC … UGGAAUUCUCGGGUGUCAAGG
CACAGACAACACGCACCCACACAGACACAGAGGGAAGGUGUUGGGAUGGGGACAGGGUGCACAGCAGGGCGGGGUAGGACCCCAGCCCCU: -1.52
AGUCCUGUGCUACACAUCGUAUGUACCGAAUCGGGGCCCCGGGCCCCGGGGCCCCGGAAAGUAUUAUGUUACGCCGUUCGGAUCUGCACU: -0.0682
UGGGAGAUGGAUUUUGUUUAUUUUUUUAGCUCAUUUCCAGGGGUGGGAAUUUUUUUUUAAUAUGUGUCAUGAAUAAAGUUGUUUUUGAAA: -0.224
CAAGUCCUGUGCUACACAUCGUAUGUACCGAAUCGGUUUUUGGAGGAAAAAAAGGAAAGUAUUAUGUUACGCCGUUCGGAUCUGCACUUC: -0.714
AAGUCCUGUGCUACACAUCGUAUGUACCGAAUCGGGGUGGGGUGGGGAAAAAGGGGAAAGUAUUAUGUUACGCCGUUCGGAUCUGCACUU: -0.407
UGGAAGCUCAUACGACUGUGAAAGAAGCUGAGGAUGACAACAUCUCGGUCACAAUCCAGGCUGAAGAUGCCAUCACUCUGGAUUUUGAUG: -2.07
ACCAUGCAGGUGGGCAUCUUUGGGAAGUGGGGCAAGGGGGGGGUAGGGAGGGGGGUAACACUUUGGGAACAGGUGGUCCCAGGUCGUUUC: -0.0101
GCAGGAAGUAAAAACAAAUGGAAAUGCUUCGGAUAGUGGCAGGGGUGGGGGUUGCUAAGGAAAGGGUGGGAUGGGAGAAAGUAAAGAGUU: -0.0835
GCAGGAAGUAAAAACAAAUGGAAAUGCUUCGGAUAGUGGCAGGGGUGGGGGUUGCUAAGGAAAGGGUGGGAAGGGAGUGGGUAAAGAGUU: 0.257
AGUCCUGUGCUACACAUCGUAUGUACCGAAUCGGGUUUUUGGGUUUUUUUGGGUGGGAAAGUAUUAUGUUACGCCGUUCGGAUCUGCACU: -0.355
UGGCCCUGGUGGCAUGAGGGGAGGAAGAGGUGGCCUCAUGGAUCGUGGUGGUCCCGGUGGAAUGUUCAGAGGUGGCCGUGGUGGAGACAG: 0.656

Series 2
Target: ABI1, truncated, D143A, DHFR fusion (Arabidopsis thaliana)
Technique: DHFR PCA, deep sequencing
Medium: yeast
Setting: methotrexate growth selection, single substitutions
With: (+)-ABA 710 µM
Reference: wild-type fitted maximum
Reading: higher = stronger binding
Measurement: relative binding score
Starting sequence: PYL1, truncated, DHFR fusion (Arabidopsis thaliana); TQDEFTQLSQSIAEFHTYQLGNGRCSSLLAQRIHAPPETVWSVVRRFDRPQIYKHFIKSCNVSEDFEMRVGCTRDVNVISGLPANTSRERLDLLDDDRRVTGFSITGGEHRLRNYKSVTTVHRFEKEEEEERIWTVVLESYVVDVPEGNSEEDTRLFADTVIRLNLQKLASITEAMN
W134N: 108%
Q19F: 98.6%
T135Q: 1.68%
S9L: 89.4%
E128L: 103%
R123P: 103%
Y53G: 55.7%
R32D: 86.5%
V76N: 79.1%
R46L: 91.3%
T160G: 84.6%
D159S: 90.8%
L28S: 75.6%
W41K: 9.83%
T101W: 72.6%
V100D: -4.4%
T39Y: 95.5%
V142L: 94.2%
L138K: 19.2%

Series 3
Target: CCNF, cyclin fold, Cln2 fusion (human)
Technique: yeast growth competition, sequencing
Medium: yeast
Setting: strong parent motif
Reference: not given
Reading: higher = stronger binding
Measurement: normalised enrichment score
Starting sequence: SLBP docking peptide (human); ARYKRKLLINDFG; partner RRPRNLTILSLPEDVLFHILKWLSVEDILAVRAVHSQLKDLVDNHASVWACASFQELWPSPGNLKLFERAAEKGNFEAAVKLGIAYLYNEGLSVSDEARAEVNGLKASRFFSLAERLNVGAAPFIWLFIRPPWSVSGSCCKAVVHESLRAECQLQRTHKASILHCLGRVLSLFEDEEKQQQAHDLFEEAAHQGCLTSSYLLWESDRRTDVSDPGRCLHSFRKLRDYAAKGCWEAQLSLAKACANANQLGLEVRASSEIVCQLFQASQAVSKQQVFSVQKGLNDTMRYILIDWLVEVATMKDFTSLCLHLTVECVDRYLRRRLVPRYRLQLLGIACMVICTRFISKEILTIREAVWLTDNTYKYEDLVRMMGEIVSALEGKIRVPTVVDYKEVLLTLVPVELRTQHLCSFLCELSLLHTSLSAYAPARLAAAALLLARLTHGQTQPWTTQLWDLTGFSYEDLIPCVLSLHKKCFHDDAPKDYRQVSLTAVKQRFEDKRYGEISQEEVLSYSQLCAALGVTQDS
ARYYRKLLINDFG [K4Y]: 1.2
AGYKRKLLINDFG [R2G]: 2.12
ARYKRKLLINDFR [G13R]: 1.56
ARYCRKLLINDFG [K4C]: 1.27
ARYKRKLLINDHG [F12H]: 0.706
ARYKNKLLINDFG [R5N]: 1.09
ARYKRCLLINDFG [K6C]: 2.41
ARYKRKLLINDFI [G13I]: 1.86
ARYKRILLINDFG [K6I]: 1.49
ARYKRKLYINDFG [L8Y]: 1.47
DRYKRKLLINDFG [A1D]: 1.69
ARYKRELLINDFG [K6E]: 1.06
ARYKRKLDINDFG [L8D]: 2.18
ARYKRKLLINDAG [F12A]: 1.56
ARYKRKPLINDFG [L7P]: 1.69
ARYKRKLLINDFM [G13M]: 2.01
ARYKRKLCINDFG [L8C]: 0.598
ARYKRKLLINDFY [G13Y]: 1.32
ARYKRKLLANDFG [I9A]: 1.62
IRYKRKLLINDFG [A1I]: 1.66
ARYKRKLLKNDFG [I9K]: 2.07
QRYKRKLLINDFG [A1Q]: 0.441
ARYKRKLLINLFG [D11L]: 3.19
ARYKRKLTINDFG [L8T]: 0.908
AFYKRKLLINDFG [R2F]: 1.37

Series 4
Target: CREB3L3, bZIP domain (human)
Technique: DHFR protein complementation
Medium: yeast
Setting: single substitutions, most at no-binding floor
Reference: wild-type JUN-FOS pair
Reading: higher = stronger binding
Measurement: binding fitness
Starting sequence: JUN, bZIP domain (human); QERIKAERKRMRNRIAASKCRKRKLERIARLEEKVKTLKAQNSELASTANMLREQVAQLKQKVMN; partner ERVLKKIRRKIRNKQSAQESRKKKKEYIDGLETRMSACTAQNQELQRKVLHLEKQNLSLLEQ
K36D: -1.56 natural log
K34T: -1.51 natural log
A57D: -1.34 natural log
L45H: -1.49 natural log
Q55I: -1.43 natural log
N42W: -1.4 natural log
Q55W: -1.49 natural log
K34V: -1.48 natural log
L52N: -1.45 natural log
R30F: -1.45 natural log
T37S: -1.48 natural log
R53W: -1.33 natural log
T37G: -1.42 natural log

Series 5
Target: Sal-like protein 4, full length isoform B (SALL4, Homo sapiens, UniProt Q9UJQ4-2, residues 1-616)
Technique: universal PBM
Form: double-stranded DNA, one strand shown
Medium: in vitro
Concentration: not given
Setting: 8-mer, flanks averaged, mean of replicates
Reading: higher = stronger binding
Measurement: E-score
ACCCGCTG: -0.229
CCAGTTAC: -0.29
ACATTGAC: 0.154
ACCAAAGT: 0.115
GTGCGGAA: -0.018
GTAAAGTA: 0.284
AACAAGTT: 0.101
CTATTGGC: -0.0367
GCGCCTAC: -0.133
CAACGCGA: -0.32
AGAAAGGG: 0.0098
GCACGGAA: -0.181
AGTCTATC: -0.00757
CGTTCACC: -0.155
AGATGTAA: 0.315
ATGGCGGA: -0.238
CTCGGGTC: -0.213
AAATATCT: 0.308
CTACCCGA: -0.0755
CTGAGTCC: -0.275
CGGCCGGC: -0.367
CCGAGACA: -0.185
AGGCTGCA: -0.0185
ACGTTTGA: 0.202
CGCGTTGA: -0.173

Series 6
Target: Histone acetyltransferase KAT6A, winged helix 1, GST fusion (KAT6A, Homo sapiens, UniProt Q92794, residues 1-85)
Technique: protein binding microarray
Form: double-stranded DNA, one strand shown
Medium: in vitro
Concentration: not given
Setting: 8-mer, flanks averaged, mean of 2 arrays, mostly near background
Reference: not given
Reading: higher = stronger binding
Measurement: E-score
Construct (chain): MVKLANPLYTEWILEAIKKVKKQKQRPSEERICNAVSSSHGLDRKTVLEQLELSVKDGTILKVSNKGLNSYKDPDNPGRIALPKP
AAATGCCC: -0.13
GGTATACC: 0.0472
TCATGACA: -0.0657
GGCGGAGA: 0.293
ACCGGAAC: 0.14
GCAGTTAA: 0.0301
GTTGCCAA: -0.176
ACCATTAA: -0.0656
CACAGTTC: -0.036
AACATCCC: -0.0503
GGACAGCA: -0.173
AGAGTCGC: -0.0424
AACTCGCC: 0.0661
GTGACCAA: -0.112
CCTTCATC: -0.177
ACCTGCTG: -0.125
ATAAGTCC: -0.149
ATAACGGC: 0.368
CATCCTGA: -0.149
CGCTACAG: 0.069
AATCAATC: -0.0504
ACGTTCCG: 0.205

Further values, each from its own experiment
PhoQ, residues 284 288 289 292 302 303 SSYNSA — fold induction (PhoP, residues 12 14 15 18 19 NQFFI (Escherichia coli, UniProt P23836); Sort-seq, measured: YFP reporter; E. coli; PhoQ-PhoP variant library, with: 10 µM Mg2+; reference: high Mg2+ state, higher = stronger signaling): 1.19
